Measurements of several laboratories.
Compare with care: the assays were run in different laboratories. Values joined by “and” are separate records of one study, mostly repeats; a detail may differ.
Method: steady-state kinetics
B1: nitrilase Y142F (Rhodococcus rhodochrous, UniProt A4LA85); chain MVEYTNTFKVAAVQAQPVWFDAAKTVDKTVSIIAEAARNGCELVAFPEVFIPGYPYHIWVDSPLAGMAKFAVRYHENSLTMDSPHVQRLLDAARDHNIAVVVGISERDGGSLYMTQLIIDADGQLVARRRKLKPTHVERSVFGEGNGSDISVYDMPFARLGALNCWEHFQTLTKYAMYSMHEQVHVASWPGMSLYQPEVPAFGVDAQLTATRMYALEGQTFVVCTTQVVTPEAHEFFCENEEQRKLIGRGGGFARIIGPDGRDLATPLAEDEEGILYADIDLSAITLAKQAADPVGHYSRPDVLSLNFNQRRTTPVNTPLSTIHATHTFVPQFGALDGVRELNGADEQRALPSTHSDETDRATASI
B2: CPB2 (Homo sapiens, UniProt Q96IY4); chain ASASYYEQYHSLNEIYSWIEFITERHPDMLTKIHIGSSFEKYPLYVLKVSGKEQAAKNAIWIDCGIHAREWISPAFCLWFIGHITQFYGIIGQYTNLLRLVDFYVMPVVNVDGYDYSWKKNRMWRKNRSFYANNHCIGTDLNRNFASKHWCEEGASSSSCSETYCGLYPESEPEVKAVASFLRRNINQIKAYISMHSYSQHIVFPYSYTRSKSKDHEELSLVASEAVRAIEKISKNTRYTHGHGSETLYLAPGGGDDWIYDLGIKYSFTIELRDTGTYGFLLPERYIKPTCREAFAAVSKIAWHVIRNV
B3: CYP2C19 (Homo sapiens, UniProt P33261); chain MDPFVVLVLCLSCLLLLSIWRQSSGRGKLPPGPTPLPVIGNILQIDIKDVSKSLTNLSKIYGPVFTLYFGLERMVVLHGYEVVKEALIDLGEEFSGRGHFPLAERANRGFGIVFSNGKRWKEIRRFSLMTLRNFGMGKRSIEDRVQEEARCLVEELRKTKASPCDPTFILGCAPCNVICSIIFQKRFDYKDQQFLNLMEKLNENIRIVSTPWIQICNNFPTIIDYFPGTHNKLLKNLAFMESDILEKVKEHQESMDINNPRDFIDCFLIKMEKEKQNQQSEFTIENLVITAADLLGAGTETTSTTLRYALLLLLKHPEVTAKVQEEIERVIGRNRSPCMQDRGHMPYTDAVVHEVQRYIDLIPTSLPHAVTCDVKFRNYLIPKGTTILTSLTSVLHDNKEFPNPEMFDPRHFLDEGGNFKKSNYFMPFSAGKRICVGEGLARMELFLFLTFILQNFNLKSLIDPKDLDTTPVVNGFASVPPFYQLCFIPV
B4: enzyme D233E (Acetivibrio thermocellus, UniProt A3DJ38); chain MKLTIPELSLVVLIGSSGSGKSTFAKKHFKPTEVISSDFCRGLVSDDENDQTVTGAAFDVLHYIVSKRLQLGKLTVVDATNVQESARKPLIEIAKDYHCFPVAVVFNLPEKVCQERNKNRTDRQVEEYVIRKHTQQLKKSIKGLQREGFRYVYILNSPEEVEEVVFERQPLWNNKKDEHGPFDIIGDIHGCYDELKMLLEKLGYLIEEVEGGVGSGKYRVTHPEGRKVLFLGELVDRGPKITEVLKLVMGMVKSGIALCVPGNHDVKLLRKLNGRDVQITHGLDRTLEQLAKEPQEFIEEVKAFIDGLVSHYVLDDGKLVVAHAGMKEEFQGRGSGKVREFALYGETTGETDEYGLPVRYDWASDYRGKALVVYGHTPQAEVLKVNNTINIDTGCVFGGKLTAYRYPEREIVDVKALKTYYEPAKPFLPKEDMAERFEARTDNDILDINDVLGKKIITTRLMSSITIHEENSIAALEVMSRFAADPHWLIYLPPTMSPCETSKKEGMLEHPIEAFEYFRTRGVGKVVCEQKHMGSRAVVIVCKDSQVAEKRFGVLDGTAGICYTRTGRHFFDDMQLEAELIDRVRKVLDKSGFWGDFNTDWVCLDCELMPWSAKAQKLLEEQYSAVGISGRVVLDEAVKLLKQASLNKTVSFDVSRQTSGKNADINELLQRFTERSEMMQKYVEAYRKYCWPVNSIDDLKLAPFHILATEGKVHSDKNHIWHMDTIAKYCTQDDSLIMATNHILVDVTDAESVDKGIKWWEDLTASGGEGMVVKPYDFIVKNGRELLQPAVKCRGREYLRIIYGPEYTMDENIERLRNRAVGKKRSLALREFSLGMEALERFVRNEPLYRVHECVFGVLALESEPVDPRL
B5: protein E27A (uncultured bacterium HF130_AEPn_1, UniProt D0E8I5); chain MSLSNSSKVSVLISLLEKSRDLDYIGAAINQLEHSLQCAYFAQRSGADNEMVLAALLHDLGHYCNDTSFEDMGGYGVWQHEKVGADYLRGLGFSERVACLIEGHVAAKRYLVSSKASYLKNLSDASRKTLEYQGGPMDEGERRLFEEREDFKDCLKIRAWDEKGKQTDLKVPGPEHYRKMMEEHLSENQN
B6: enzyme N249W (Thermobifida fusca, UniProt Q47RK4); chain MTDVYILDAVRTPFGRYGGALSGIRPDDLAAHVLRALAERSPGLDPAAVDDVFFGDANGAGEDNRNVARMAALLAGWPTSVPGVTLNRLCGSGMESVIAANRAIAVGDASLAVAGGVESMSRAPWVLPKPAQGFPTGHETLYSTTLGWRMVNPAMPEQWTVSLGESTEQVAATYGISRAEQDAFALRSHERAARAWAEGVFDAEITQIPGAELERDESIRETSAEKLAALKPAFRPDGTITAGNASPLWDGAAALLIGDAAAAERVGREPLARIVSRGVAAVDPDVFGIGPVQAAEIALRRAGIGWDDLSVVELNEAFAAQSLACLKLWPDLDPEIVNPNGGAIAIGHPLGASGARIVGTLAHELHRRGGGWGLAAICIGVGQGLAVVLHR

Substance | substrate | conditions | Km
B1 (nitrilase Y142F) | Cc1cccc(C#N)c1 | pH 7.5, 25 °C | 1190 µM
fcl (Campylobacter jejuni, UniProt Q0P8I6) | Nc1nc2c(ncn2[C@@H]2O[C@H](COP(=O)(O)OP(=O)(O)O[C@H]3O[C@@H]([C@H](O)CO)C(=O)[C@@H](O)[C@@H]3O)[C@@H](O)[C@H]2O)c(=O)[nH]1 | pH 7.5, 30 °C, apparent | 121 µM
enzyme (Actinobacillus pleuropneumoniae, UniProt A3N2T3) | O=c1ccn([C@@H]2O[C@H](CO[P@@](=O)(O)O[P@@](=O)(O)O[C@H]3O[C@H](CO)[C@@H](O)[C@H](O)[C@H]3O)[C@@H](O)[C@H]2O)c(=O)[nH]1 | pH 7.2, 37 °C, apparent | 126 µM
dnrK (Streptomyces peucetius, UniProt Q06528) | O=[N+]([O-])c1ccc(O)c(Cl)c1 | pH 8, 37 °C | 106 µM
B2 (CPB2) | C[C@H](NC(=O)[C@H](Cc1ccccc1)NC(=O)[C@H](CCC(N)=O)NC(=O)CNC(=O)[C@@H]1CCCN1C(=O)[C@H](Cc1ccccc1)NC(=O)[C@@H](N)Cc1ccc(O)cc1)C(=O)N[C@@H](Cc1ccccc1)C(=O)N[C@@H](CO)C(=O)N[C@@H](CCCCN)C(=O)O | 37 °C | 123 µM
plcB (Listeria monocytogenes, UniProt P33378) | CCCCCC(=O)OC[C@H](COP(=O)([O-])OCC[N+](C)(C)C)OC(=O)CCCCC | pH 6, 37 °C | 2800 µM
DD-peptidase R39 (Actinomadura sp. R39, UniProt P39045) | C[C@@H](NC(=O)c1ccccc1)C(=O)SCC(=O)O | pH 7.2, 30 °C, with: D-alanine 100 mM | 300 µM
B3 (CYP2C19) | CCOC(=O)C1(c2ccccc2)CCN(C)CC1 | pH 7.4 | 167 µM
B4 (enzyme D233E) | Nc1ncnc2c1ncn2[C@@H]1O[C@H](CO)[C@H]2OP(=O)(O)O[C@H]21 | pH 7.5, 45 °C | 62000 µM
OXA-48 (Klebsiella pneumoniae, UniProt Q6XEC0) | O=C(Cc1cccs1)N[C@@H]1C(=O)N2C(C(=O)O)=C(/C=C/c3ccc([N+](=O)[O-])cc3[N+](=O)[O-])CS[C@H]12 | pH 7.2, 30 °C | 36 µM
B5 (protein E27A) | NC[C@H](O)P(=O)(O)O | pH 7, 25 °C, NaCl 150 mM, with: O2, Fe(II) 100 µM, ascorbate 100 µM | 4200 µM and 2350 µM
B6 (enzyme N249W) | CC(C)(COP(=O)(O)OP(=O)(O)OC[C@H]1O[C@@H](n2cnc3c(N)ncnc32)[C@H](O)[C@@H]1OP(=O)(O)O)[C@@H](O)C(=O)NCCC(=O)NCCSC(=O)CCC(=O)O | pH 7.4, 37 °C | 1370 µM
Lxyl-p1-1 (Lentinula edodes, UniProt G8GLN9) | [H][C@]12[C@H](OC(=O)c3ccccc3)[C@]3(O)C[C@H](OC(=O)[C@H](O)[C@@H](NC(=O)c4ccccc4)c4ccccc4)C(C)=C([C@@H](O)C(=O)[C@]1(C)[C@@H](O[C@@H]1OC[C@@H](O)[C@H](O)[C@H]1O)C[C@@]1([H])OC[C@@]21OC(C)=O)C3(C)C |  | 570 µM
dmhA (Campylobacter jejuni, UniProt Q5M6Q7) | Nc1nc2c(ncn2[C@@H]2O[C@H](COP(=O)(O)OP(=O)(O)O[C@H]3O[C@H]([C@H](O)CO)[C@@H](O)[C@H](O)[C@@H]3O)[C@@H](O)[C@H]2O)c(=O)[nH]1 | pH 7.5, 30 °C | 61 µM
enzyme (Deinococcus radiodurans, UniProt P56926) | NC(=O)CC[C@H](N)C(=O)O | pH 7.2, 37 °C | 168 µM
ACHE (Homo sapiens, UniProt P22303) | CC(=O)SCCC[N+](C)(C)C | pH 7, 25 °C, apparent | 330 µM
lpxD (Escherichia coli, UniProt P21645) | CCCCCCCCCCC[C@@H](O)CC(=O)O[C@@H]1[C@@H](N)[C@@H](OP(=O)(O)OP(=O)(O)OC[C@H]2O[C@@H](n3ccc(=O)[nH]c3=O)[C@H](O)[C@@H]2O)O[C@H](CO)[C@H]1O | pH 8, 25 °C | 4 µM

Repeated from above:
Substance | substrate | conditions | Km
enzyme (Deinococcus radiodurans, UniProt P56926) | NC(=O)CC[C@H](N)C(=O)O | pH 7.2, 37 °C | 168 µM
ACHE (Homo sapiens, UniProt P22303) | CC(=O)SCCC[N+](C)(C)C | pH 7, 25 °C, apparent | 330 µM
